Experimental data of several laboratories.
Each line is one published result; not all experiments were run side by side.
TMPRSS2: Transmembrane protease serine 2 (TMPRSS2, Homo sapiens, UniProt O15393)
UniProt O15393, sequence (whole entry, looked up): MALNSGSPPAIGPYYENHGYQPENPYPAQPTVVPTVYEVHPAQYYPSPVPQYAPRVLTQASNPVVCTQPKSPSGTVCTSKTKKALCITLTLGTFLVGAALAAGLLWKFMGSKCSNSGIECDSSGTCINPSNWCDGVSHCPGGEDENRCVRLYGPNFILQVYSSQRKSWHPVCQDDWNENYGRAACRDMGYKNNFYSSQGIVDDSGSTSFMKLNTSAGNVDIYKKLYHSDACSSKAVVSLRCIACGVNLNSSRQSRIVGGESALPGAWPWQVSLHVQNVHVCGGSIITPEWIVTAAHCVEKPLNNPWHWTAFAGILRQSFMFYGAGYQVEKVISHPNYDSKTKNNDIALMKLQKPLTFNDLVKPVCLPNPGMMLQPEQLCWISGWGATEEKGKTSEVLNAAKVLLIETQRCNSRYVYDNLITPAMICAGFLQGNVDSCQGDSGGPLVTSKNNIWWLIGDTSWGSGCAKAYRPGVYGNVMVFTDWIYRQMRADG
UniProt P18825, sequence (whole entry, looked up): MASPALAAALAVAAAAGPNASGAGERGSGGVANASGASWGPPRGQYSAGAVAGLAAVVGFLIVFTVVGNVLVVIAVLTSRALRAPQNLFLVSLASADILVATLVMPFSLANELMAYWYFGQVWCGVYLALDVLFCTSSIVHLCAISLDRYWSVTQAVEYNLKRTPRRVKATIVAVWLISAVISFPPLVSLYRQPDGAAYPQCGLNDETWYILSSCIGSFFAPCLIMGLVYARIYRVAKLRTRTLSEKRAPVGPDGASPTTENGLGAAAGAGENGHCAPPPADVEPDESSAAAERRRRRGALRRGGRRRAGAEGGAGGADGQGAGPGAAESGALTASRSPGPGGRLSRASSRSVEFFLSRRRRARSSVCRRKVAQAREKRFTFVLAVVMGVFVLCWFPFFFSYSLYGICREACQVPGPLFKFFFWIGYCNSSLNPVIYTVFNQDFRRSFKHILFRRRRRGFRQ
UniProt Q9P2K8, sequence (whole entry, unmodified, looked up): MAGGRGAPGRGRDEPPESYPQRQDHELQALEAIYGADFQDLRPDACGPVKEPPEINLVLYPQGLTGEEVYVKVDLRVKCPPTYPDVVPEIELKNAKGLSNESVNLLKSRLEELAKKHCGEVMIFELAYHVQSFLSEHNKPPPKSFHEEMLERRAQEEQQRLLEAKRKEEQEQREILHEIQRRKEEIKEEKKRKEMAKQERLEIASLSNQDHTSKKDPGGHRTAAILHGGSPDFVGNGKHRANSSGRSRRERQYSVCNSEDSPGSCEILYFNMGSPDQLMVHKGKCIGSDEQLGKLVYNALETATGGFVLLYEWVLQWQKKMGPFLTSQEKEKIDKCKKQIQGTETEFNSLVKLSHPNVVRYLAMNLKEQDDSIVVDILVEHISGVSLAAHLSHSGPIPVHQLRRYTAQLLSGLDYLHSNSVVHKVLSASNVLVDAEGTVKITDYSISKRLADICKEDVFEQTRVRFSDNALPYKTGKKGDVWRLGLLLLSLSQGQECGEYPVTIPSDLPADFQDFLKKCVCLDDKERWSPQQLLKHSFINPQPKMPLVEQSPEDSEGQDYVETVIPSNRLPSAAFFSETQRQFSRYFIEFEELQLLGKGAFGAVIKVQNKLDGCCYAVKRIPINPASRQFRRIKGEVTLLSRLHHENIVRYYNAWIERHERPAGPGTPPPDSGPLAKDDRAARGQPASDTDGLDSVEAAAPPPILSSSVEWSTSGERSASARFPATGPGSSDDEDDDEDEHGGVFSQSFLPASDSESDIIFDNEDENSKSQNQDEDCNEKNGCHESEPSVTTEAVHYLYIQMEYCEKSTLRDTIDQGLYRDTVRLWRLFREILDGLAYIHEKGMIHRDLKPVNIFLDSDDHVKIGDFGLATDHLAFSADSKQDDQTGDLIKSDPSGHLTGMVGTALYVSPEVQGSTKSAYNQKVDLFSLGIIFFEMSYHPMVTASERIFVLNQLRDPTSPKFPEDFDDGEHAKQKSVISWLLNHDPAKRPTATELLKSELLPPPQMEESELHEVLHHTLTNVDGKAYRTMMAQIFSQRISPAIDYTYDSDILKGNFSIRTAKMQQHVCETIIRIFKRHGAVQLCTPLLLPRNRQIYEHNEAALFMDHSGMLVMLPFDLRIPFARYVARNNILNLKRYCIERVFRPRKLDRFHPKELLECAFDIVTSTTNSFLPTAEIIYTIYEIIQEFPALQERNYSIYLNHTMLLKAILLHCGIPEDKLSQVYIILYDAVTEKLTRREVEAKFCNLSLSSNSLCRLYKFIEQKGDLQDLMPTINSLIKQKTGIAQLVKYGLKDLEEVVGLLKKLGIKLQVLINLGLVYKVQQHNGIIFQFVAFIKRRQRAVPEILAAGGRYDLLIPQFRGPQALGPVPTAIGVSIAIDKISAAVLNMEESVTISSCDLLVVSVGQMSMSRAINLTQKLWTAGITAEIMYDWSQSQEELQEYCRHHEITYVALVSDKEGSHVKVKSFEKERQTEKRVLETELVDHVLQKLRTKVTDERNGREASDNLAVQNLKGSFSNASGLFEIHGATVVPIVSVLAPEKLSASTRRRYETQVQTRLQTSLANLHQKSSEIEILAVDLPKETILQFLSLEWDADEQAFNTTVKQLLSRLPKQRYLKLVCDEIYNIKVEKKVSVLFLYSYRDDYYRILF
UniProt P0C1S8, sequence (whole entry, looked up): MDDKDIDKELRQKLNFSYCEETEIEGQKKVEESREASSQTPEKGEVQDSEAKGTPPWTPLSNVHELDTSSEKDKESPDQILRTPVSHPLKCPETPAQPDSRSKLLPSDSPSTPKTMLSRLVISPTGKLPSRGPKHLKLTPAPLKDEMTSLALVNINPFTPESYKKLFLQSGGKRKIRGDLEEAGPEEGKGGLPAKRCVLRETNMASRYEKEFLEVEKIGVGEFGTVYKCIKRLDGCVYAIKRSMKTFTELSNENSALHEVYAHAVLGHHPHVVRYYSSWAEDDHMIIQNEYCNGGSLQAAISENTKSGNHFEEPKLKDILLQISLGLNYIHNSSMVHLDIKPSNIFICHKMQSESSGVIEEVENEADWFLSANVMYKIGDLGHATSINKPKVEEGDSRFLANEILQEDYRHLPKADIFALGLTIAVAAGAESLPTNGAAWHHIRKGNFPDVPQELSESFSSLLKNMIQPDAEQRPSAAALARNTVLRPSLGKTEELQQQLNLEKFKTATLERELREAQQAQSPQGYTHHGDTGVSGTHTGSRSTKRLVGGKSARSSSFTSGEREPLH
UniProt P08908, sequence (whole entry, looked up): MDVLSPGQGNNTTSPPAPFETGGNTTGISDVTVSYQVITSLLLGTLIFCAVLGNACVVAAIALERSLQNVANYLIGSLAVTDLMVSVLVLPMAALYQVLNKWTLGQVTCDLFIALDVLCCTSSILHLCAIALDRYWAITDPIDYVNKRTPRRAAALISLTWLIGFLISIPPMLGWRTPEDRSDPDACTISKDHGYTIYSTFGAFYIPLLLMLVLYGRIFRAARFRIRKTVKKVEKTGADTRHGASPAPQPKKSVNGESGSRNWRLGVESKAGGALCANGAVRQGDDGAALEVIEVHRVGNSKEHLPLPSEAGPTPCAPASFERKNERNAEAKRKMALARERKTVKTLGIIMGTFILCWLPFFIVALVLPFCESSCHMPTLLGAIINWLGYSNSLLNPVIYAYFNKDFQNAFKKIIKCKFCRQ
UniProt Q9UL54, sequence (whole entry, looked up): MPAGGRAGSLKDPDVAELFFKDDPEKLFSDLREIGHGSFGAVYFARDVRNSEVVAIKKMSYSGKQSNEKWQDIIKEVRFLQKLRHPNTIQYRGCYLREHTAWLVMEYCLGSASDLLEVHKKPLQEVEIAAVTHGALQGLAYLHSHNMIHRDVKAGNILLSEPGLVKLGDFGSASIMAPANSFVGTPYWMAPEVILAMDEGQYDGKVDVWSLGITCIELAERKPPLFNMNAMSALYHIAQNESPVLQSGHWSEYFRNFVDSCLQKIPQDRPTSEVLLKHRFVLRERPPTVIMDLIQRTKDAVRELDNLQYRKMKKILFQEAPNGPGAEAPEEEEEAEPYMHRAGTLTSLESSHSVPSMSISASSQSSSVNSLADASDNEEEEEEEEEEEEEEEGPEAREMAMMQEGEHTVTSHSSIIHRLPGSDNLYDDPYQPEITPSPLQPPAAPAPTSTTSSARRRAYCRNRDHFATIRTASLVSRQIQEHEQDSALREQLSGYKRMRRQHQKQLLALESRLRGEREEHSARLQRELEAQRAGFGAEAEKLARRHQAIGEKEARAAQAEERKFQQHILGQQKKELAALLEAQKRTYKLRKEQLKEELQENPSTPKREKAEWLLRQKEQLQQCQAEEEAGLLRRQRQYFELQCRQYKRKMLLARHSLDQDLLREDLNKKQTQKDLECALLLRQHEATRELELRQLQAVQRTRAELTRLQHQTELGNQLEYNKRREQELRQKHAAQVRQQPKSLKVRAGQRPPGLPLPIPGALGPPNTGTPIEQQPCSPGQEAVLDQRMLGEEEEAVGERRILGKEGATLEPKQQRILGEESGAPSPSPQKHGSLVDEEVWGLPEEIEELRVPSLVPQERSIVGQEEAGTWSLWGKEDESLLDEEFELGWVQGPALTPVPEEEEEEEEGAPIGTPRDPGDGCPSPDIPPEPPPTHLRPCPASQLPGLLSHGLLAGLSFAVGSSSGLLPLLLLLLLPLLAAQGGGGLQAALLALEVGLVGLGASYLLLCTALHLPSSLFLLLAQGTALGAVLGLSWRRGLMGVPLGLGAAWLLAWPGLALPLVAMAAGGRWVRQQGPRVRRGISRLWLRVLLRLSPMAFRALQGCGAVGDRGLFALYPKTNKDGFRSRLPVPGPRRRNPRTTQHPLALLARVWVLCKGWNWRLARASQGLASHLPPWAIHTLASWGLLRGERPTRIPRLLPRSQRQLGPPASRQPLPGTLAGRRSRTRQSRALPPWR

SMILES | target | assay | conditions | endpoint | result
CC(C)CC(=O)OC[C@H]1O[C@@](C#N)(c2ccc3c(N)ncnn23)[C@H](O)[C@@H]1O | HTR1A (Homo sapiens, UniProt P08908) | cell-free assay | 20 µM | inhibition | -6%
C#Cc1n[nH]c2c(-c3cn(C(C)c4ccccn4)c(=O)[nH]c3=O)cc(F)cc12 (stereo not shown) | PRKDC (Homo sapiens, UniProt P78527) | enzyme activity, inhibitor | 1 µM | inhibition | 12.8%
N=C(N)NCCCCC(=O)N[C@@H](CCC(N)=O)C(=O)N[C@@H](Cc1ccc2ccccc2c1)C(=O)N[C@@H](CCCNC(=N)N)C(=O)c1nc2ccccc2s1 | TMPRSS2 | enzyme activity, inhibitor | 1 nM | activity vs control | 86%
COc1ncccc1-c1cnn2ccc(N3CCN(C(=O)OC(C)C)CC3)nc12 | WEE2 (Homo sapiens, UniProt P0C1S8) | binding, competition with immobilised ligand | 1 µM | remaining binding | 100%
CCC[C@H](NC(=O)[C@H](CCc1ccccc1)NC(=O)CCc1ccccc1)C(=O)N[C@@H](CCCNC(=N)N)C(=O)c1nc2ccccc2s1 | TMPRSS2 | enzyme activity, inhibitor | 1 nM | activity vs control | 70%
Nc1ncc(-c2nc(N3CCOCC3)nc(N3CCOCC3)n2)c(C(F)F)n1 | TAOK2 (Homo sapiens, UniProt Q9UL54) | binding, competition with immobilised ligand | 10 µM | remaining binding | 92%
COc1ccccc1Cn1ccnc1SCC(=O)Nc1cccc(C(F)(F)F)c1 | PFF0160c (Plasmodium falciparum, UniProt Q08210) | enzyme activity, inhibitor, absorbance |  | IC50 | 763 nM
c1cncc([C@@H]2CCCN2)c1 | ADRA2C (Homo sapiens, UniProt P18825) | ligand displacement | 50 µM | inhibition | 10.7%
CCCCOc1ccccc1C(=O)NCc1csc(-c2ccccc2)n1 | PFF0160c (Plasmodium falciparum, UniProt Q08210, E182D) | enzyme activity, inhibitor, absorbance |  | IC50 | 577 nM
[2H]c1c([2H])c([C@]2([2H])CCCN2C(=O)C(C)(C)Oc2ccc3cn[nH]c3c2)c([2H])c([2H])c1C([2H])([2H])[2H] | CLK3 (Homo sapiens, UniProt P49761) | binding, competition with immobilised ligand | 1 µM | remaining binding | 78%
C[C@H](NC(=O)[C@H](CC(N)=O)NC(=O)[C@@H](N)CCCCN)C(=O)N[C@@H](CCCNC(=N)N)C(=O)c1nc2ccccc2s1 | TMPRSS2 | enzyme activity, inhibitor | 1 nM | activity vs control | 97%
Cc1nn(C)cc1-c1nc2c(N3CCN(Cc4ccc(Cl)cc4)CC3)c(Cl)cnc2[nH]1 | eIF-2-alpha kinase GCN2, C-terminal kinase domain (EIF2AK4, Homo sapiens, UniProt Q9P2K8, S808G) | binding, competition with immobilised ligand | 1 µM | remaining binding | 100%
NCC(O)c1ccccc1 (stereo not shown) | Procathepsin L (CTSL, Homo sapiens, UniProt P07711) | enzyme activity, inhibitor | 100 µM | remaining activity | 130%
